Assay results gathered from unrelated publications.
A part holds a random share of what one study measured. Positions count from the first letter of the parent shown.

Block 1 — technique: DHFR PCA, deep sequencing; matrix: yeast; with: (+)-ABA 4.8 µM; reference: wild-type fitted maximum; reading: higher = stronger binding
Target: ABI1, truncated, D143A, DHFR fusion (Arabidopsis thaliana)
Setting: methotrexate growth selection, single substitutions
Starting sequence: PYL1, truncated, DHFR fusion (Arabidopsis thaliana); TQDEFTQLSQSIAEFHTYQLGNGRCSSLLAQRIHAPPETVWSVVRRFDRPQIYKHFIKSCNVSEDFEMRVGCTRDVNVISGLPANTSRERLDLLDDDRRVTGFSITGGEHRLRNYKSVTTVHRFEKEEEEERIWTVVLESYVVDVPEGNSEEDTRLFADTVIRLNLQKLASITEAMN
Change | relative binding score [%]
R46N | 15.2
F124M | 91.7
T106P | 2.84
V100W | -11.9
V161G | -2.6
G81F | -18.9
R155G | -0.235
M176L | 69.2
D3N | 58.2
T154D | -5.04
R155S | 6.46
L29I | 69.8
Y53H | 38.5
D144K | -3.34
R46T | 23.7
R113I | 59.7
T119V | 14.4
R90Q | 50.4
Q51N | 43.1
T86F | 72.7

Block 2 — target: CCNA2, cyclin fold, Cln2 fusion (human); technique: yeast growth competition, sequencing; matrix: yeast; setting: weak parent motif; reference: not given; reading: higher = stronger binding
Starting sequence: E2F8 docking peptide (human); FVPQRKLEVSTED
Change | normalised enrichment score
FVAQRKLEVSTED [P3A] | -0.021
FVPQRKLEVSTEA [D13A] | 0.203
FVPQKKLEVSTED [R5K] | -0.104
FVPQRKLEASTED [V9A] | 0.244
FVPQRKLEVSTAD [E12A] | -0.197
FVPARKLEVSTED [Q4A] | -0.38
FVPQRKLEFSTED [V9F] | 2.52
FVPQRKAEVSTED [L7A] | 0.0171

Block 3 — technique: RNA Bind-n-Seq; molecule type: RNA; matrix: in vitro; tested at: 365 nM; reference: no-protein control; reading: higher = stronger binding
Target: RNA binding protein fox-1 homolog 2, RRM domain, GST-SBP tag (RBFOX2, Homo sapiens, UniProt O43251-10, residues 100-194)
Setting: natural RNA segment, single round, ends assumed
Shared flanks, not repeated: GGGAGUUCUACAGUCCGACGAUC … UGGAAUUCUCGGGUGCCAA
Construct (chain): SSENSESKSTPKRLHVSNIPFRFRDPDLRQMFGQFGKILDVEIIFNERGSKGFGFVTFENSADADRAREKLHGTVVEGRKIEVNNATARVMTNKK
Sequence | RBNS enrichment (R)
CAACUCCUGACAGAAUAACCAGGCUCUUGAUUUAGAUCAUGUGGAAGGUGAGAUAUAAAUGUAUAUAGACAUGUAGCUGAGGAUAUUAAUUUCAGUCUUAAAGUGUGACU | 0.7
UGGUUACACCAUCAUCUACCCUCUAGCUAGGGAUGAGGUGGAGGUAAAAUGCUCCCUGUGAGUUUGCAAGCUCUGAAAACAACACCGCUGUGUGCUCAUUCUUAGAGUGA | 0.229
GCUGGCCAUGAUAUUGCCCCAAAUCCGCCCCACUGAAGUGUUCCCUAAGGAACAGCAUUUCUCUGCUCCUCAGUCAACCCCCGUAGCCUAGAGCAGUGUCACAAGCUUCA | 0.307
CUGGAGAUUCCCUGUCAGGAACUUUUCAUCCUGAAGUACAGUGGUGGGCUAGUCACCAAAGGAUGAAGUUCAGCACGUGGGACAGAGAUAACGACAAUUACCAAGGAAAC | 11.6
CCUGUUUUGUGUCAGUUUGGUGUGAGGUGACAUGGAAAAAUGUUGAUGAUUGUAGAUUAAGCUGAAACAUAUAAUGAGAGCAAUGAGAACAAGUUUGUUUUGCCUGAUAC | 2.87
AAGAAGCCUUGAAGACUGGACAAGGGAGGACAGGGUGGAGCAGGGAUAGCCGUGGCUUCAUUUAUCGUUUGCACCCAGGAGGCCUUGUAGUCUUCCAAUUGCAGGAGAUC | 0.329
CACCACCCUCCUGCUGCCACAGAAGGAAGUUCUCAGUAUACACCACAGUGCACGUGCAUGAUGGAGCUGUGGGACCCUCUCUGGGCUGGGUCUCAUCUGUAAGCUGCUAC | 7.18
UAUUCUGCCCUUGCUCUGUGUCAUCUCAGUCAUUUGACUUAGAAAGUGCCCUUCAAAAGGACCCUGUUCACUGCUGCACUUUUCAAUGAAUUAAAAUUUAUUUCUGUUCU | 0.342
GUAUAAUUUUGAGGUAUAGCUUGAACUCCUAGAACAAGAGUUAAAAGUUCUUUUUAGCUCAUUCACAAUCACUUGUGUGUUAAGUGUUAAUAUCUGUCAUGAACCUGCCA | 1.44
GAAGAAAGGCCUUGUAAGUGACAAGACAGUCCCCUGGGAAGAAAGAGAAAGGAAAUGGGCUAUUGCCAAAGGACAGGUGGCGUUAGAUGGCUGUGAGGGUGACCUGGUGA | 1.33
UUUUUUAAUUUAAAGUUUUUUUAUGUAAGUUUUCCCACAUGAUGGGGCCUUGUUUUGCAUGUUGAUGAAGAACUACACAAAGAAAACUAAUAUAGUUAAAAGUCAGCUUG | 19.7
CAAAGCUGUUUUGCAGCUGUUUUCCCUUAAAGAUGUCCUGUUGCUUUAGUGAUAUUUAGACCCCUCUCAGUUAAGAAAUGCUUAGAUUAAAAAAAAAAAAUUACGUAGGA | 0.789

Block 4 — target: UBE2T UBC core domain (UniProt Q9NPD8); technique: yeast two-hybrid; matrix: yeast; setting: mostly zero background; reference: not given; reading: higher = stronger interaction
B1: TRIM8 RING domain (UniProt Q9BZR9); chain WKNCFEEELICPICLHVFVEPVQLPCKHNFCRGCIGEAWAKDSGLVRCPECNQAYNQKPGLE
B2: IRF2BPL RING domain (UniProt Q9H1B7); chain SPMANSGPLCCTICHERLEDTHFVQCPSVPSHKFCFPCSRESIKAQGATGEVYCPSGEKCPLVGSNVP
B3: CUL9 RING domain (UniProt Q8IWT3); chain AQAVPVRPDHCPVCVSPLGCDDDLPSLCCMHYCCKSCWNEYLTTRIEQNLVLNCTCPIADCPAQPTGAFIR
B4: RNF170 RING domain (UniProt Q96K19); chain TRQQFYTDMYCPICLHQASFPVETNCGHLFCGACIIAYWRYGSWLGAISCPICRQTVTLLLTVF
B5: TRIM63 RING domain (UniProt Q969Q1); chain PMENLEKQLICPICLEMFTKPVVILPCQHNLCRKCANDIFQAANPYWTSRGSSVSMSGGRFRCPTCRHEVIMDRHGV
B6: RC3H2 RING domain (UniProt Q9HBD1); chain QAAQWTEFLSCPICYNEFDENVHKPISLGCSHTVCKTCLNKLHRKACPFDQTAINTDIDVL
Target sequence (chain): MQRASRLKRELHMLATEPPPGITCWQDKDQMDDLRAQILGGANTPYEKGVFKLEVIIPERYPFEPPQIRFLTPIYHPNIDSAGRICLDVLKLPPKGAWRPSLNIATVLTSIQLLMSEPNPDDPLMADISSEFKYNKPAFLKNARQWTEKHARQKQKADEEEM
Sequence | lacZ reporter activity
B1 (TRIM8 RING domain) | 0
B2 (IRF2BPL RING domain) | 0
RLTMMWEEVTCPICLDPFVEPVSIECGHSFCQECISQVGKGGGSVCPVCRQRFLLKNLRP (TRIM21 RING domain (UniProt P19474)) | 0
KTLSRFGIQPCSICLGDAKDPVCLPCDHVHCLRCLRAWFASEQMICPYCLTALPDEFSPA (RNF213 RING domain (UniProt Q63HN8)) | 0
DAIPSLSECQCGICMEILVEPVTLPCNHTLCKPCFQSTVEKASLCCPFCRRRVSSWTRYH (RNF168 RING domain (UniProt Q8IYW5)) | 0
FPEHFVKSISCQICEHILADPVETNCKHVFCRVCILRCLKVMGSYCPSCRYPCFPTDLES (RAG1 RING domain (UniProt P15918)) | 0
QLRRLQEERTCKVCMDKEVSVVFIPCGHLVVCQECAPSLRKCPICRGIIKGTVRTF (BIRC2 RING domain (UniProt Q13490)) | 0
B3 (CUL9 RING domain) | 0
B4 (RNF170 RING domain) | 0
B5 (TRIM63 RING domain) | 0
B6 (RC3H2 RING domain) | 0

Some of these lines once more (block 1):
Change | relative binding score [%]
R155S | 6.46
R113I | 59.7
T86F | 72.7
T154D | -5.04
D3N | 58.2
